Results gathered from unrelated publications.
Each line is one published result; not all experiments were run side by side.
tmk: Thymidylate kinase (tmk, Mycobacterium tuberculosis, UniProt P9WKE1)
UniProt P9WKE1, sequence (whole entry, looked up): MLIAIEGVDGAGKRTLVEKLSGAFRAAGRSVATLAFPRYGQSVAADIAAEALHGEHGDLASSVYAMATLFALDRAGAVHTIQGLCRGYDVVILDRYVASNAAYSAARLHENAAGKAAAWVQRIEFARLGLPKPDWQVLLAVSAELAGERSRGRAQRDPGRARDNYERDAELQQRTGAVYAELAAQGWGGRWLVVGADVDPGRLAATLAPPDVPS
Htr2c: 5-hydroxytryptamine receptor 2C (Htr2c, Mus musculus, UniProt P34968)
UniProt P34968, sequence (whole entry, looked up): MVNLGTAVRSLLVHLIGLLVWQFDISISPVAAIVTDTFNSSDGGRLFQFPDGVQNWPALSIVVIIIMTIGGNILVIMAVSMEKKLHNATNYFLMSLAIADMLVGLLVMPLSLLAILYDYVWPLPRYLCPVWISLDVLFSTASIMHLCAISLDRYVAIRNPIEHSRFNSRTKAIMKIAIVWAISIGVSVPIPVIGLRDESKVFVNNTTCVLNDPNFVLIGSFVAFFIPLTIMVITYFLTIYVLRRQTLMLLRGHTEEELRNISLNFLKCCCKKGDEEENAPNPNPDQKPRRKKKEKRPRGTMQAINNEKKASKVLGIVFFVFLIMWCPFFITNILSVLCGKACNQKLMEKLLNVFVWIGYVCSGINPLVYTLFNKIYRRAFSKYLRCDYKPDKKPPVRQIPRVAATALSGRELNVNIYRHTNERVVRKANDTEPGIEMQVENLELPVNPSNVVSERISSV
HTR2C: 5-hydroxytryptamine receptor 2C (HTR2C, Homo sapiens, UniProt P28335)
UniProt P28335, sequence (whole entry, looked up): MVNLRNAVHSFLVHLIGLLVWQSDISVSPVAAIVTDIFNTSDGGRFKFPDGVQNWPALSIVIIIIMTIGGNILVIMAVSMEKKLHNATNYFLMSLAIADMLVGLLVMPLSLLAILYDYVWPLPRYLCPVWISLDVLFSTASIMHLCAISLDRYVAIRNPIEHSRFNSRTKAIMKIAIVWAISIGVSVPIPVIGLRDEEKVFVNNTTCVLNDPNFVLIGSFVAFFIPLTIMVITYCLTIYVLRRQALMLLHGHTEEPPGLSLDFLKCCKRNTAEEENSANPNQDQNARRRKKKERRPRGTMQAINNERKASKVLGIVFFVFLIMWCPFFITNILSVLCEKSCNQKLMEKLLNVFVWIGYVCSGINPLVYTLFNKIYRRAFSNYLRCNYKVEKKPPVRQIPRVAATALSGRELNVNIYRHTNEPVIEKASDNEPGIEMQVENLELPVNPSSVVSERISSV
UniProt Q9NRH2, sequence (whole entry, looked up): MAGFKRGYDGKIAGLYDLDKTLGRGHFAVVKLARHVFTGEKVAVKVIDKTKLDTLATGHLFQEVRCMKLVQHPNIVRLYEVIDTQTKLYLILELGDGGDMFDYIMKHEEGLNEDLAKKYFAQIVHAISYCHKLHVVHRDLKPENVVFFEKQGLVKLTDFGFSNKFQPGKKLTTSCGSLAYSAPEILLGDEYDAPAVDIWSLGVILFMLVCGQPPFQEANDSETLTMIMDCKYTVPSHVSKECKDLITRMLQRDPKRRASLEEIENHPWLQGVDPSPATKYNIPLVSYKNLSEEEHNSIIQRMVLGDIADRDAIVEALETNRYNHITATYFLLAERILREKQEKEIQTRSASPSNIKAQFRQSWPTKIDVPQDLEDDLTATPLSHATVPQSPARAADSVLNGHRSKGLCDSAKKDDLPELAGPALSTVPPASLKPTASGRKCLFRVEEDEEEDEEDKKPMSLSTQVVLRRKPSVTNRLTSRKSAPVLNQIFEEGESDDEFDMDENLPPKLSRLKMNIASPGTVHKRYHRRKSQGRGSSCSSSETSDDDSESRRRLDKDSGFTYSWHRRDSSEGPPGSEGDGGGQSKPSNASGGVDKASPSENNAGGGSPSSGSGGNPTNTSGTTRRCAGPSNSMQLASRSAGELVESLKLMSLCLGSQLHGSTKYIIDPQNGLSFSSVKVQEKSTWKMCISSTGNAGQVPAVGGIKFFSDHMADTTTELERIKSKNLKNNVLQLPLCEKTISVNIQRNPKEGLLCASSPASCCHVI
UniProt Q8N568, sequence (whole entry, looked up): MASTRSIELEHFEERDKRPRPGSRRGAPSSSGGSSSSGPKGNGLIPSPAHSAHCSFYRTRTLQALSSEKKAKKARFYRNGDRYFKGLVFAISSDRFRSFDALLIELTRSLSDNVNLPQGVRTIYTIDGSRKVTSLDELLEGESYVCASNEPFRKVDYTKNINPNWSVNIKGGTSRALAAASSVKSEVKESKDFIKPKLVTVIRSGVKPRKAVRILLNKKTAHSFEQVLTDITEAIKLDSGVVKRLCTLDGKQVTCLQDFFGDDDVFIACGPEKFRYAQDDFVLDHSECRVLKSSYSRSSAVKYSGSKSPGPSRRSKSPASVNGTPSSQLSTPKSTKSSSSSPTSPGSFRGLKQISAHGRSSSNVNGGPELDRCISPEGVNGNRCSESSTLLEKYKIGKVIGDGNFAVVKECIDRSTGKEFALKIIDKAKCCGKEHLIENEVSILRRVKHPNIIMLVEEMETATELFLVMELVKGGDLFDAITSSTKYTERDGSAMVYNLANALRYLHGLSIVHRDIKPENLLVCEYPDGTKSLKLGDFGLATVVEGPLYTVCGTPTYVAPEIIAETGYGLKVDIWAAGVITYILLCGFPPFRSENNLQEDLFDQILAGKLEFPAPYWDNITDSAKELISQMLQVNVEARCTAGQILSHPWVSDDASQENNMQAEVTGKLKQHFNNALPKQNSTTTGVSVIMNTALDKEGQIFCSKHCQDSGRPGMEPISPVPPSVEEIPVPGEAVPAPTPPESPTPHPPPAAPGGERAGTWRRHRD

SMILES	target or system	assay	conditions	endpoint	result
COc1ccc(C(=O)N[C@H]2CC[C@@]3(O)[C@H]4Cc5ccc(O)c6c5[C@@]3(CCN4CC3CC3)[C@H]2O6)s1.Cl	HEK293	GTPγS binding, agonist, radiometric	–	Emax	13.4%
CC1=C(C(N)=O)C(c2ccc([N+](=O)[O-])o2)NC(=O)N1 (centres unmarked)	tmk	enzyme activity, inhibitor, absorbance	10 µg/mL	inhibition	89.8%
Cl.O=C(N[C@H]1CC[C@@]2(O)[C@H]3Cc4ccc(O)c5c4[C@@]2(CCN3CC2CC2)[C@H]1O5)c1ccc(F)s1	HEK293	GTPγS binding, agonist, radiometric	–	Emax	27.3%
CCOC(=O)C1=C(C)NC(=NN=c2[nH]c3ccccc3[nH]c2=O)NC1c1ccc(F)cc1 (centres unmarked)	tmk	enzyme activity, inhibitor, absorbance	10 µg/mL	inhibition	82.8%
Cl.O=C(N[C@H]1CC[C@@]2(O)[C@H]3Cc4ccc(O)c5c4[C@@]2(CCN3CC2CC2)[C@H]1O5)c1ccc(Cl)s1	HEK293	GTPγS binding, agonist, radiometric	–	Emax	26.7%
CC1=C(C(N)=O)C(c2ccc([N+](=O)[O-])o2)NC(=S)N1 (centres unmarked)	tmk	enzyme activity, inhibitor, absorbance	0.01 µg/mL	inhibition	37.3%
COc1cc(CCNCc2ccccc2OC)c(OC)cc1Br	Htr2c	G protein activation, agonist, BRET	–	Emax	107%
Cc1nn(C)cc1-c1nc2c(N3CCN(Cc4ccc(Cl)cc4)CC3)c(Cl)cnc2[nH]1	Epidermal growth factor receptor (EGFR, Homo sapiens, UniProt P00533, L858R)	binding, competition with immobilised ligand	1 µM	remaining binding	100%
COc1cc(CCNC(C)c2ccccc2)c(OC)cc1C#N (centres unmarked)	Htr2c	G protein activation, agonist, BRET	–	Emax	87%
Cl.NC(=O)c1ccc(C(=O)N[C@H]2CC[C@@]3(O)[C@H]4Cc5ccc(O)c6c5[C@@]3(CCN4CC3CC3)[C@H]2O6)s1	HEK293	GTPγS binding, agonist, radiometric	–	Emax	44%
Nc1ncc(-c2nc(N3CCOCC3)nc(N3CCOCC3)n2)c(C(F)F)n1	Epidermal growth factor receptor (EGFR, Homo sapiens, UniProt P00533, del747-752/P753S)	cell-free assay, competition with immobilised ligand	10 µM	remaining binding	85%
COc1cc(CCNC(C)c2ccccc2O)c(OC)cc1C#N (single isomer, unassigned; (-))	HTR2C	G protein activation, agonist, BRET	–	Emax	119%
CC(=O)S(=O)(=O)c1ccc(C(=O)N[C@H]2CC[C@@]3(O)[C@H]4Cc5ccc(O)c6c5[C@@]3(CCN4CC3CC3)[C@H]2O6)s1.Cl	HEK293	GTPγS binding, agonist, radiometric	–	Emax	26.7%
COc1cc(CCNCc2ccccc2O)c(OC)cc1C#N	Htr2c	G protein activation, agonist, BRET	–	Emax	105%
[2H]c1c([2H])c([C@]2([2H])CCCN2C(=O)C(C)(C)Oc2ccc3cn[nH]c3c2)c([2H])c([2H])c1C([2H])([2H])[2H]	Serine/threonine-protein kinase DCLK2 (DCLK2, Homo sapiens, UniProt Q8N568)	binding, competition with immobilised ligand	1 µM	remaining binding	86%
CCC(NCCc1cc(OC)c(C#N)cc1OC)c1ccccc1O (centres unmarked)	HTR2C	calcium signal, agonist	–	Emax	42%
COc1ncccc1-c1cnn2ccc(N3CCN(C(=O)OC(C)C)CC3)nc12	SNF-related serine/threonine-protein kinase (SNRK, Homo sapiens, UniProt Q9NRH2)	binding, competition with immobilised ligand	1 µM	remaining binding	100%

For quick reference, copied from above:
SMILES	target or system	assay	conditions	endpoint	result
CC1=C(C(N)=O)C(c2ccc([N+](=O)[O-])o2)NC(=O)N1 (centres unmarked)	tmk	enzyme activity, inhibitor, absorbance	10 µg/mL	inhibition	89.8%
[2H]c1c([2H])c([C@]2([2H])CCCN2C(=O)C(C)(C)Oc2ccc3cn[nH]c3c2)c([2H])c([2H])c1C([2H])([2H])[2H]	Serine/threonine-protein kinase DCLK2 (DCLK2, Homo sapiens, UniProt Q8N568)	binding, competition with immobilised ligand	1 µM	remaining binding	86%
